{"data": "Experimental data collected from several papers", "ABL1 non-phosphorylated": "Tyrosine-protein kinase ABL1, non-phosphorylated (ABL1, Homo sapiens, UniProt P00519)", "ABL1 T315I phosphorylated": "Tyrosine-protein kinase ABL1, phosphorylated (ABL1, Homo sapiens, UniProt P00519, T315I)", "note": "Lines come from different studies, so protocols differ."}
{"Compound": "C=C1CCCCCCCCCC(CO)C1=O (centres unmarked)", "target": "Tyrosine-protein kinase ABL1, phosphorylated (ABL1, Homo sapiens, UniProt P00519, E255K)", "read-out": "cell-free assay", "technique": "competition with immobilised ligand", "tested at": "10 µM", "remaining binding [%]": 64}
{"Compound": "CNS(=O)(=O)Nc1nccc(Cc2c(C)c3ccc(Oc4ncccc4F)cc3oc2=O)c1F", "target": "ABL1 non-phosphorylated", "read-out": "binding", "technique": "competition with immobilised ligand", "tested at": "10 µM", "remaining binding [%]": 100}
{"Compound": "COc1ccc(NC(=O)Nc2ccc3c(c2)C(=O)N(C(C)CO)CC(C)C(CN(C)Cc2ccc4c(c2)OCO4)O3)cc1 (centres unmarked)", "target": "ABL1 T315I phosphorylated", "read-out": "binding", "technique": "competition with immobilised ligand", "tested at": "10 µM", "remaining binding [%]": 44}
{"Compound": "CN1CCN(Cc2ccc(NC(=O)c3cccc(C#Cc4cnc(N)c5ncccc45)c3)cc2C(F)(F)F)CC1", "target": "ABL1 non-phosphorylated", "read-out": "cell-free assay", "technique": "competition with immobilised ligand", "tested at": "50 nM", "remaining binding [%]": 0.8}
{"Compound": "C=CC(=O)N1CCc2ccc(-n3c(=O)ccc4cnc5ccc(-c6cnn(C)c6)cc5c43)cc21", "target": "ABL1 T315I phosphorylated", "technique": "KINOMEscan", "measured": "(T315I)-phosphorylated", "tested at": "1 µM", "relative to": "control", "remaining binding [%]": 100}
{"Compound": "COc1c(Cl)cccc1Nc1c(-c2ccncc2C#C[C@@]2(C)CCCN2C(=O)/C=C/CN(C)C)[nH]c2c1C(=O)NCC2", "target": "Tyrosine-protein kinase ABL1, phosphorylated (ABL1, Homo sapiens, UniProt P00519)", "read-out": "binding", "technique": "competition with immobilised ligand", "tested at": "3 µM", "remaining binding [%]": 77}
{"Compound": "CCN1CCN(Cc2ccc(NC(=O)c3ccc(C)c(NC(=O)c4cncc(-c5cccs5)c4)c3)cc2C(F)(F)F)CC1", "target": "Tyrosine-protein kinase ABL1 (ABL1, Homo sapiens, UniProt P00519, T315I)", "read-out": "binding", "technique": "competition with immobilised ligand", "tested at": "1 µM", "remaining binding [%]": 9.4}
{"Compound": "CC(=O)N1c2ccc(-c3ccc(CNC(=O)c4cn5cc(-c6cnc(N)nc6)nc(N6CCOCC6)c5n4)cc3)cc2CC[C@@H]1C", "target": "ABL1 T315I phosphorylated", "read-out": "binding", "technique": "competition with immobilised ligand", "tested at": "10 µM", "remaining binding [%]": 99}
{"Compound": "Cc1ccc(C(=O)Nc2cccc(C(F)(F)F)c2)cc1Nc1cncc(C(N)=O)c1", "target": "Tyrosine-protein kinase ABL1 (ABL1, Homo sapiens, UniProt P00519, F317I)", "read-out": "binding", "technique": "competition with immobilised ligand", "tested at": "1 µM", "remaining binding [%]": 13}
{"Compound": "CNc1ccc(-c2n[nH]c3c2CCN(C(=O)c2ccccc2)C3)cc1", "target": "ABL1 non-phosphorylated", "read-out": "cell-free assay", "technique": "competition with immobilised ligand", "tested at": "10 µM", "remaining binding [%]": 23}
{"Compound": "Nc1ncc2c(n1)-c1c([nH]c3ccc(C4=CCOCC4)cc13)CCC2", "target": "Tyrosine-protein kinase ABL1, phosphorylated (ABL1, Homo sapiens, UniProt P00519, H396P)", "read-out": "binding", "technique": "competition with immobilised ligand", "tested at": "1 µM", "remaining binding [%]": 100}
